Measurements of several laboratories.
Parts stem from different laboratories: compare values within a part only.

Series 1
Target: Muscarinic acetylcholine receptor M1 (CHRM1, Homo sapiens, UniProt P11229)
Chain of UniProt P11229 (whole entry, looked up): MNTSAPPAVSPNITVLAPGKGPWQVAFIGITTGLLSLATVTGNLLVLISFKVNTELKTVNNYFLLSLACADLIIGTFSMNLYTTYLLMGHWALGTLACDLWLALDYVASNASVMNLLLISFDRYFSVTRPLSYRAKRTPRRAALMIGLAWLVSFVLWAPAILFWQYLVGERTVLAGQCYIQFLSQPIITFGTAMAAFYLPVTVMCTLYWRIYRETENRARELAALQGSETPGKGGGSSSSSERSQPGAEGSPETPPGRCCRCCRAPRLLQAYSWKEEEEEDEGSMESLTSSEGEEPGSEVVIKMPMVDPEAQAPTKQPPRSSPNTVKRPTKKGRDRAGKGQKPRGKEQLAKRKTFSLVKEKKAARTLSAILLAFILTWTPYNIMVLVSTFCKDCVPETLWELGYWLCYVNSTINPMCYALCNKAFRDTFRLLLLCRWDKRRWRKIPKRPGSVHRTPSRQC
Read-out: binding
Technique: radioligand binding
Concentration: 10 µM
Structure (SMILES)	inhibition
O=C(Nc1cnc(Oc2ccc(F)cc2)nc1)N1CCc2ncccc2[C@@H]1c1ccc(F)cc1	7.56%
CC1=C(C#N)C(c2ccc3c(c2)c(NC(=O)c2ccccc2C)nn3C)C(C#N)=C(C)N1	-1.37%
O=C([C@H]1C[C@H](O)CN1c1ccc(Cl)cc1)N1CC2COCC(C1)N2Cc1ccc(Cl)cc1	-3.85%
O=C(Nc1cccnn1)N1CCC(=Cc2cccc(Oc3ccc(C(F)(F)F)cn3)c2)CC1	29.5%
CCOC(=O)c1cc2cc(-c3cc(C(=O)NCc4ccc(C(=O)O)cc4)nn3C)ccc2[nH]1	-17.4%
O=C(Nc1ccc(-n2nc(-c3cccnc3)cc2C(F)(F)F)cn1)c1ccc(-c2ccccc2)c(F)c1	25.5%
Cc1nc(N2CC[C@@H](O)C2)ncc1-c1cc(C(F)(F)F)cc2[nH]ncc12	1.12%
Cc1c(NC(=O)c2cc(C(N)=O)nc3cc(F)ccc23)c(C(F)(F)F)nn1Cc1ccc(C(C)(C)C)cc1	37.2%
O=C(NC[C@@H]1[C@H]2CN(C(=O)OCc3cc(C(F)(F)F)cc(C(F)(F)F)c3)C[C@@H]12)c1ccc2[nH]nnc2c1	-2.87%
Cc1nc(C2CCN(C(=O)c3ccc(OC(F)(F)F)cc3N)CC2)c2ncc(N3CCN(C)CC3)cc2n1	2.76%
COc1cc(-c2cn(C3CCc4ccccc4N(CC(F)(F)F)C3=O)nn2)ccc1-n1ccc(C)n1 (stereo not drawn)	-12.6%
CCOCCn1cc(C(=O)Nc2ccc(-n3nc(-c4cccnc4)cc3C(F)(F)F)cn2)ccc1=O	-12%
CC(C)(O)c1cncc(-c2nc3ccc(F)cc3n2C2CC2)c1	-4.49%
CC(=O)Nc1c(F)cc(C(=O)N[C@H]2CC[C@H](O)CC2)cc1O[C@@H](C)c1ccccc1	-4.64%
CN1CCN(C(=O)C(C)(C)c2ccc(C(=O)Nc3cn4cc(-c5ccncc5)ccc4n3)cc2)CC1	-10.8%
C[C@@]1(Cc2ccc(C#N)cc2)C(=O)N(c2cc(Cl)cc(Cl)c2)c2ncc(C(=O)NC3(c4nc(C5CCC5)no4)CC3)n21	-8.37%
CS(=O)(=O)NCC[C@H](NC(=O)c1cncc2c1cnn2-c1ccc(F)cc1)c1ccnc(S(C)(=O)=O)c1	-17%
C[C@@H]1CN(c2cc(-c3nn(C)c4ccc(OC5(C)CC5)cc34)ncn2)C[C@H](C)O1	-1.02%
COc1nc2ccc([C@@](O)(c3ccccc3)C3CCN(C(C)=O)CC3)cc2c(Cl)c1Cc1ccc(-n2cccn2)cc1	5.4%
CNC(=O)c1ccc(Nc2ncc(C(F)(F)F)c(NCc3nccnc3N(C)S(C)(=O)=O)n2)cc1	19.3%
O=C1CCc2cc(Nc3cc(OC4CCOCC4)c([N+](=O)[O-])cc3Cl)ccc2N1	-4.43%
O=C(O)c1cc(-c2ccc(C3CCNCC3)cc2)c2ccc(-c3ccc(C(F)(F)F)cc3)cc2c1	4.16%
CNC(=O)Nc1ccc2c(c1)[C@]1(CC2)OC(=O)N(CC(=O)N(Cc2ccc(F)cc2)[C@@H](C)C(F)(F)F)C1=O	5.42%
Cc1cc(-n2nc(Cc3cc(F)cc(C(F)(F)F)c3)nc2C)ccc1C(N)=O	-7.57%
CNC(=O)c1cc(C(=O)NC2CC2)cn(Cc2ccccc2)c1=O	-15.7%

Series 2
Target: Calcium/calmodulin-dependent protein kinase type II subunit alpha (CAMK2A, Homo sapiens, UniProt Q9UQM7)
Chain of UniProt Q9UQM7 (whole entry, looked up): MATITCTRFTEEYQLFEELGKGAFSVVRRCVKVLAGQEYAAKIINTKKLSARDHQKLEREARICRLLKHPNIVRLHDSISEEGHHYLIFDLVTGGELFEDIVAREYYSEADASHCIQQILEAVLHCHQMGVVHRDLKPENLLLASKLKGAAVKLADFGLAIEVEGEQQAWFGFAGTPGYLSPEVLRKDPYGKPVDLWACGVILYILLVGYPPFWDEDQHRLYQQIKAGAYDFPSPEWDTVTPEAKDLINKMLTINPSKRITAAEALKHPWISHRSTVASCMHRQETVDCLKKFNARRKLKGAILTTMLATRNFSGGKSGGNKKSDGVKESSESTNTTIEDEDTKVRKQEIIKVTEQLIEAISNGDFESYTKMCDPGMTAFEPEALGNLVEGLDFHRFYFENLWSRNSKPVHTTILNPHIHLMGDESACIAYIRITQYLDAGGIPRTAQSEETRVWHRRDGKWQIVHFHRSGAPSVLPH
Read-out: enzyme activity
Mode: inhibitor
Concentration: 10 µM
Compound	inhibition
COC1c2c(ccc3c2OCO3)-c2ccc3cc4c(cc3c2N1C)OCO4 (stereo not drawn)	19%
C[C@H]1CCCC(=O)CCC/C=C/c2cc(O)cc(O)c2C(=O)O1	-39%
C=C1[C@H]2C[C@@]3(C4C[C@@H]5[C@@]6(C)CC[C@H](O)[C@@]5(C4N(CC)C6)[C@@H]3C[C@H]2O)[C@@H]1O	-15%
COc1cc2c(cc1OC)-c1c(OC)c(OC)cc3c1[C@H](C2)N(C)CC3	-16%
CCC1=N[C@H]2C[C@@]3(C(=O)N(OC)c4ccccc43)[C@H]3C[C@@H]1[C@@H]2CO3	-9%
c1cncc(C2CCCCN2)c1 (racemic)	4%

Series 3
Target: Eukaryotic initiation factor 4A-III (Homo sapiens, UniProt P38919)
Chain of UniProt P38919 (whole entry, looked up): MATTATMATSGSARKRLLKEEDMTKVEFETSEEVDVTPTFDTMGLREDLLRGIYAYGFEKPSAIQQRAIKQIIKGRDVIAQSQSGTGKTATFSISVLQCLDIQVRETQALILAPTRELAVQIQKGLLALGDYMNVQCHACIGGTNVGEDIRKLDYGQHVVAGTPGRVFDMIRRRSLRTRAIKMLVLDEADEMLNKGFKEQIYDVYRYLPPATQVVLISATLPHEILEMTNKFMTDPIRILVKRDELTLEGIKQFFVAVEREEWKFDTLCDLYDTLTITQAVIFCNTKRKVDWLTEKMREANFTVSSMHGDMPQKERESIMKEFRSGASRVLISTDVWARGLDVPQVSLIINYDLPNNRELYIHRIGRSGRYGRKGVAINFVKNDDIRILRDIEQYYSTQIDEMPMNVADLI
Read-out: RNA clamping
Technique: fluorescence polarization
Concentration: concentration not given
Added: FAM-labelled poly r(AG)8 RNA
SMILES	fluorescence polarization change [mP]
COc1ccc([C@]23Oc4cc(OC)cc(OC)c4[C@](O)([C@H](c4ccccc4)[C@H]2C(=O)NCCCCNC(=O)c2ccccc2)[C@H]3O)cc1	-4.8
COC(=O)[C@@H]1[C@@H](c2ccccc2)[C@]2(c3ccc(OC)cc3)Oc3cc(OC)cc(OC)c3[C@@]23OC(c2ccc(Cl)cc2)=N[C@@]13O	4.6
COc1ccc([C@@]23Oc4cc(OC)cc(OC)c4[C@]2(O)c2nc4n(c(=O)c2[C@H]3c2ccccc2)CCCC4)cc1	22.3
COc1ccc([C@@]23Oc4cc(OC)cc(OC)c4[C@]2(O)c2nc(-c4ccccc4)[nH]c(=O)c2[C@H]3c2ccccc2)cc1	2.5
COc1ccc([C@@]23Oc4cc(OC)cc(OC)c4[C@]2(O)c2nc(-c4ccc(OCc5ccccc5)cc4)[nH]c(=O)c2[C@H]3c2ccccc2)cc1	3.4
COC(=O)[C@H]1[C@H](c2ccccc2)[C@@]2(c3ccc(Br)cc3)Oc3cc(OC)cc(OC)c3[C@]1(O)[C@H]2O	-7.5
COC(=O)[C@@H]1[C@@H](c2ccccc2)[C@]2(c3ccc(OC)cc3)Oc3cc(OC)cc(OC)c3[C@@]23OC(c2ccc(OC)cc2)=N[C@@]13O	-0.7
COC(=O)[C@H]1[C@@H](O)[C@@]2(O)c3c(OC)cc(O)cc3O[C@@]2(c2ccc(OC)cc2)[C@@H]1c1ccccc1	44.3
COC(=O)[C@@H]1[C@@H](O)[C@@]2(O)c3c(OC)cc(OC)cc3O[C@@]2(c2ccc(OC)cc2)[C@H]1c1ccccc1	4
COc1ccc([C@]23Oc4cc(OC)cc(OC)c4[C@@]2(O)[C@@H](O)C[C@@H]3c2ccccc2)cc1	-1.8

Series 4
Organism: Sarcocystis neurona
Read-out: parasite growth
Concentration: 10 µM
Time: 96 h
Notes: first screen
SMILES	inhibition [%]
C=C1C[C@@H]2[C@H](CC[C@]3(C)C(=O)CC[C@@H]23)[C@@]2(C)C=CC(=O)C=C12	10.8
CNCC(O)c1ccc(O)cc1 (stereo not drawn)	-13.9
COc1ccc(C(CN(C)C)C2(O)CCCCC2)cc1 (stereo not drawn)	11.4
O=C1CN=C(c2ccccc2)c2cc([N+](=O)[O-])ccc2N1	7.4
CC(NC(C)(C)C)C(=O)c1cccc(Cl)c1 (stereo not drawn)	-23.2
C[C@]12C/C(=C/O)C(=O)C[C@@H]1CC[C@@H]1[C@@H]2CC[C@@]2(C)[C@H]1CC[C@]2(C)O	10.6
CN1C(=O)CN=C(c2ccccc2)c2cc([N+](=O)[O-])ccc21	2
Cc1nnc2n1-c1ccc(Cl)cc1C(c1ccccc1)=NC2	4.4
Cc1ncc2n1-c1ccc(Cl)cc1C(c1ccccc1F)=NC2	-13.2
NC(=O)C[S+]([O-])C(c1ccccc1)c1ccccc1 (stereo not drawn)	-14.9

Some of these lines once more (series 2):
Compound	inhibition
c1cncc(C2CCCCN2)c1 (racemic)	4%
COc1cc2c(cc1OC)-c1c(OC)c(OC)cc3c1[C@H](C2)N(C)CC3	-16%
COC1c2c(ccc3c2OCO3)-c2ccc3cc4c(cc3c2N1C)OCO4 (stereo not drawn)	19%
C[C@H]1CCCC(=O)CCC/C=C/c2cc(O)cc(O)c2C(=O)O1	-39%
